# Experimental data of several laboratories.
# Every numbered part comes from another study and shows a few of its results, in no order.

# Sample 1
# Target: Fragile X messenger ribonucleoprotein 1, C-terminal low-complexity region (Fmr1, Mus musculus, UniProt P35922)
# Technique: RNA Bind-n-Seq
# Molecule type: RNA
# Medium: in vitro
# Tested at: 200 nM
# Setting: whole 134-nt RNA, ends assumed
# With: 150 mM LiCl
# Baseline: input library
# Direction: higher = stronger binding
# All molecules: 7-deaza-guanosine replaces G
Sequence,log2 enrichment
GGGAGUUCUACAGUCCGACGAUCCAAGUCCUGUGCUACACAUCGUAUGUACCGAAUCGGCCCCGGGCCCCGGGCCCCGGAAAGUAUUAUGUUACGCCGUUCGGAUCUGCACUUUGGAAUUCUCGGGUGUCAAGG,-1.66
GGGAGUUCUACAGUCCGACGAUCCCUCAAGUCCUGUGCUACACAUCGUAUGUACCGAAUCGGCCGGGCCGGGCCGGAAAGUAUUAUGUUACGCCGUUCGGAUCUGCACUUCCAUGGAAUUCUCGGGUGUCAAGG,-0.144
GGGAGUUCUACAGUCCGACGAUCCUGUGCUACACAUCGUAUGUACCGAAUCGGUUUUUUUGGGGUUUUUUUGGGGUUUUUUUGGAAAGUAUUAUGUUACGCCGUUCGGAUCUGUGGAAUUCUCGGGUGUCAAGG,1.26
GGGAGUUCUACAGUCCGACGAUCUCCUGUGCUACACAUCGUAUGUACCGAAUCGGGUUUUUUUGGGAAAAAGGGUUUUUGGGAAAGUAUUAUGUUACGCCGUUCGGAUCUGCAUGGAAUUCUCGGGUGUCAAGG,-2.52
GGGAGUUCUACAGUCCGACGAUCCUGUGCUACACAUCGUAUGUACCGAAUCGGAAAAAAAGGGAAAAAAAGGGGAAAAAAAGGGAAAGUAUUAUGUUACGCCGUUCGGAUCUGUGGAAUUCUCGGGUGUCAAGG,-0.311
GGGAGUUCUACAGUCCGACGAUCUGGCCCUGGUGGCAUGCGGGGAGGAAGCGGUGGCCUCAUGGAUCGUGGUGGUCCCGGUGGAAUGUUCAGAGGUGGCCGUGGUGGAGACAGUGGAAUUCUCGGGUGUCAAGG,-0.279
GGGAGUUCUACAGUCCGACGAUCCCUCAAGUCCUGUGCUACACAUCGUAUGUACCGAAUCGGGGCGGGCGGGCGGGAAAGUAUUAUGUUACGCCGUUCGGAUCUGCACUUCCAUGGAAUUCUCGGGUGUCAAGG,-0.962
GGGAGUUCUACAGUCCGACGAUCAAGUCCUGUGCUACACAUCGUAUGUACCGAAUCGGGUUUUUGGGUUUGGGUUUGGGAAAGUAUUAUGUUACGCCGUUCGGAUCUGCACUUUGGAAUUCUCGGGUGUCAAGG,-1.8
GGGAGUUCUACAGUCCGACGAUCCAAGUCCUGUGCUACACAUCGUAUGUACCGAAUCGGUUUUUUUGGAGGAAAAAGGAAAGUAUUAUGUUACGCCGUUCGGAUCUGCACUUCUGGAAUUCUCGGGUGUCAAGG,-1.26
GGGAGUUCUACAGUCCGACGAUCCACAGACAACACGCACCCACACAGACACAGAGGGAAGGGGUUGGGAUGGGGACAGGGUGCACAGCAGGGCGUGGUAGGACCCCAGCCCCUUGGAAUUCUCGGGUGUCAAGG,0.154
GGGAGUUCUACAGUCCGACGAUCCACAGACAACACGCACCCACACAGACACAGAGAGAAGGGGUUGGGAUGGGGACAGGGUGCACAGCAGGGCGGGGUAGGACCCCAGCCCCUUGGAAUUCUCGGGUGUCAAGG,0.594

# Sample 2
# Target: Interferon regulatory factor 5, full length, phosphomimetic (IRF5, Homo sapiens, UniProt Q13568-2, residues 1-514, S451D/S453D/S456D/S462D)
# Technique: protein-binding microarray
# Molecule type: double-stranded DNA, one strand shown
# Medium: in vitro
# Tested at: 940 nM top
# Setting: 60-bp whole probe
# With: salmon DNA 0.4 mg/ml
# Baseline: random background probes
# Direction: higher = stronger binding
# All sequences stand within: GCCTAGCAC … GTCTTGATTCGCTTGACGCTGCTG
Sequence,fitted relative affinity
TCAGCTCACACCTGTCATACTGTGCTA,-0.0305 z-score
TCAGTAAGCAAAAATGAACTGTGCTAG,-0.339 z-score
TTAGGTATTGGTATCGGTTAGTGCTAG,7.49 z-score
TTAGGTCTCGGTCTCGGTCAGTGCTAG,5.02 z-score
TGGGACCAGCACAGACAGTCGTGCTAG,-1.09 z-score
ATAACACTCTTCTTTTGCTAAGTGCTA,0.968 z-score
GACGGTTTCCTTTCCCTGACGTGCTAG,2.43 z-score
GACGGTATCCTACTGCGGACGTGCTAG,-0.0492 z-score
TTAGGTCTGCTTATCCTTTAGTGCTAG,-0.275 z-score
TTAGGACTGGGGACTGGGATAGTGCTA,-0.385 z-score
GACGAACTGGGGTATCGATACGTGCTA,3.33 z-score
GACGATATCAGACTGGAGAAGTGCTAG,-0.454 z-score
CACACCCGGCTCCTCTGCCAGTGCTAG,-0.104 z-score
GACGATTTCAGTTCTGAGACGTGCTAG,0.407 z-score
TCACGTGTTTTTCTCCTACTGTGCTAG,1.33 z-score
TTAGGACTGCTTGTCCTTTAGTGCTAG,-0.628 z-score
CCACTTTCCATTTCTGTTTTTGTGCTA,2.55 z-score
TTAGGTATCGGTATCGGATAGTGCTAG,10.7 z-score
TTACGTTTCCTTTCCCTTTAGTGCTAG,2.64 z-score
TTAGATTTCAGGTTCGATTAGTGCTAG,0.717 z-score
GACGATTTCGGGACGGGAGACGTGCTA,0.308 z-score
TTAGGTCTCCTACTGCTTTCGTGCTAG,0.0553 z-score
TTAGATCTCAGACTGGAATAGTGCTAG,-0.193 z-score
TCAGTCATCGATTTCTTACTGTGCTAG,0.173 z-score

# Sample 3
# Target: RNA binding protein fox-1 homolog 2, RRM domain, GST-SBP tag (RBFOX2, Homo sapiens, UniProt O43251-10, residues 100-194)
# Technique: RNA Bind-n-Seq
# Molecule type: RNA
# Medium: in vitro
# Tested at: 365 nM
# Setting: natural RNA segment, single round, ends assumed
# Baseline: no-protein control
# Direction: higher = stronger binding
# Residues (chain): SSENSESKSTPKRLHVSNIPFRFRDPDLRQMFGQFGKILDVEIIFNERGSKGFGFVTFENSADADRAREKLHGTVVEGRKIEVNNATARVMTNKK
Sequence,RBNS enrichment (R)
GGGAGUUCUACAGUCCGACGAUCGAGAUCUCAAUGCUGUCUGGGGACCCUAAGAGUUUUCUCACCUGUUCAGUCUCAUCUAACCUUCCAAUGUCUGAUGUUCCUGCCAAAUUCCUGCCUGAUUCUGGGUCCGUUGGAAUUCUCGGGUGCCAA,0.474
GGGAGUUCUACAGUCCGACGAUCAAAUCAGGCAAAAUUUGUUCCUGAAGUUGCUUUUUACCCCAGCAGACAUAAACUGCGAUAGCUUCAGCUUGCACUGUGGAUUUUCUGUAUAGAAUAUAUAAAACAUAACUUGGAAUUCUCGGGUGCCAA,0.529
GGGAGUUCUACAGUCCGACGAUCCACAGUGGAGCAGCUUGUCCACAAAUAUAGUAAUUACUAUUUAUUGCUCUAAGGAAGAUUAAAAAAAGAUAGGGAAAAGGGGGAAACUUCUUUGAAAAAUGAAACAUCUGUGGAAUUCUCGGGUGCCAA,0.835
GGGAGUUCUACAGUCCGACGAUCUUUAAAUUGCCUCAGUGAUACAGUAUAAAGAUAAACAGAAAUGCUGAGAUAAGCUUAGCACUUGAGUUGUACAACAGAACACUUGUACAAAAUAGAUUUUAAGGCUAACUUGGAAUUCUCGGGUGCCAA,0.305
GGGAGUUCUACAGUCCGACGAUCCGCCCUGACACCUGGCUGGCCAGCCGCGUGCCCUGCCCCACCUGCCGCGCACGCUUCUGCAUCCUGGAUGUGUGCACCGUGCGCUGAGUGGGCUGGGGCCUUGAGGUGACUGGAAUUCUCGGGUGCCAA,0.314
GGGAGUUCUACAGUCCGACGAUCCAUCCCUCAGUUGGUCCAUUGUAAUGAUGAUCGUCCUCAUCUGAGUGACAGUUACUGCCCAGGGUCCAGCCAAGGACAGGUACAGGAAGGCAGAGAUCACUAUAGAGCCAUGGAAUUCUCGGGUGCCAA,0.311
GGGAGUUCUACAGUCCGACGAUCUUAAAGGAACAGCAGAGUAGAAAAGAGGUUGAGAAUGUUUUCUAGCAGGCAGAAUGUGCAUACAUGUUUUCAUGAGUGUCCUUUGGGUGCUGUUUCUUUUAAAUCCUCUGUGGAAUUCUCGGGUGCCAA,1.02
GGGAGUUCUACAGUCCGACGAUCGACCUAGAGCCAGGAGAAACCAGCUAAAGACCUGCAGGCUGCACCCACCUCCUCCCCUUCCUACCCCCUAGGAUGCUAUUCCCUUGGGCUGUGGUGGAAAAAUGAGGGCUUGGAAUUCUCGGGUGCCAA,0.595
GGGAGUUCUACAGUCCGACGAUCGACGUCACAUUUCUCGGCCUCCGACAUUAUGACAUUCUGCAUCCUGGUGCCUGAAGGAAACUCUGGGAAAUUGUACACUAACAGGGAGUUGAACCAUGAAGCUCUUCGUCUGGAAUUCUCGGGUGCCAA,0.386

# Sample 4
# Target: RING finger protein unkempt homolog, zinc fingers 1-6, GST-SBP tag (UNK, Homo sapiens, UniProt Q9C0B0, residues 30-357)
# Technique: RNA Bind-n-Seq
# Molecule type: RNA
# Medium: in vitro
# Tested at: not given
# Setting: RNA with constant flanks, human and mouse sites, ends assumed
# Baseline: input RNA pool
# Direction: higher = stronger binding
# Construct (chain): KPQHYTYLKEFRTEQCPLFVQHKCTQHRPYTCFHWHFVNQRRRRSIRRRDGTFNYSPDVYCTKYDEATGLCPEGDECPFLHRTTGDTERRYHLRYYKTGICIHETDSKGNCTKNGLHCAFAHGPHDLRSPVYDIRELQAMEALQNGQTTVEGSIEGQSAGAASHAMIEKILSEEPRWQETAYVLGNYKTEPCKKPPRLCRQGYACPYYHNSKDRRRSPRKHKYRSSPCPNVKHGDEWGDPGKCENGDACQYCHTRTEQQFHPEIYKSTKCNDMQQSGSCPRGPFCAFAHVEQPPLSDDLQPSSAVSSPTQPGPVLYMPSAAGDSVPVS
Sequence,bound/input enrichment [ratio]
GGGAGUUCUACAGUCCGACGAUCCGCGGCUCGAACUUCACUGCCAUUUGUGUGCUGAAGGAGGCGUGUCUGCAGCAUUACUACGUGAAUGCCAGCUACAUCGUGUGGAAGACCAACCAUGCUGCUGUUCCCAGGGAGCAGGUCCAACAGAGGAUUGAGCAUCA,0.128
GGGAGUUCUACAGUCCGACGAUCGCCAUUGAUAGGAAGCGGCACCAUGUACUACAGACGGCUCAUCCCUCCCCUUUGUCAGUGUAUAGAGGGUUCUUUGGAUGUAGACACUUUUCAAAGACCAAUGAGCUGCUGCAGAAGUCUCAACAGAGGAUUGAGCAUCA,0.195
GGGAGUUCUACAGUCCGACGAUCUUGUAGAAACUGCCCCAGGACUUGGCUUUGUGGGAAUUUGUACACCCCACCUCCCUUUUUGACAAAAUUAUCUGAACUCAAUAUCUAGUGCAUAAAGAAUUUUUGUCAAAUGGGUACAUUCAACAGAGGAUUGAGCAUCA,0.788
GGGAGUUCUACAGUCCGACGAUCAGUAGUCAAGGGUAUCAAUGGAUCUGAUCUGAGGAAACACAGGAAGACAGCUCUACAACUGUCUACAACAGCUGGUAGGGCAAGGCUCUGUCUUCUGUGUGUGACGCGUGUAUUGAACAGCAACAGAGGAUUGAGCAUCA,0.115
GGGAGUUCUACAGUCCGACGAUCGAAUUGCAGGAUAUGAUCAAUGAAGUGGAUGCUGAUGGUAAUGGCACCAUUGACUUCCCCGAAUUUUUGACUAUGAUGGCUAGAAAAAUGAAAGAUACAGAUAGUGAAGAAGAAAUCCGUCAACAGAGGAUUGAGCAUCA,0.607
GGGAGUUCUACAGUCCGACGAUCGUAGCUUCUAGAGAUAAUUUUGAGGAUGAGACUGAAGAUGAUGAUCUGUUUGAAACUGAAUUUAGACAAUAUAAGAGAACAUACUACAUGACGAAGAUGGGCGUCGAUGUAGUAUCUGAUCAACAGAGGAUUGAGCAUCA,4.27
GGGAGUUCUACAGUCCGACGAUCUGAAAAUCUAAAUACUCCUUUUGCAAUGAAUUACCUUUUUCUGGAGGAGGGGUAGUCAGGGGAGCUAAGACAAGGUCCCUCUGUGUAACUCUGACUGUCCUAGAACUUGCUUGCUAUGUACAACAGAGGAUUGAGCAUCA,0.259
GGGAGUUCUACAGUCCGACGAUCUGUACUGACCAGAGGCAGAGUGCAUUCCCGUUUUCCCUCAGUACUUGAUGUUGAGACAAGUGUGCAGGCACAGCUGUAAUUAAUGCAGGCCAACCGACACUUGGAGGGCAGCUUUGGCCUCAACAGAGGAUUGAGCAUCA,0.0438
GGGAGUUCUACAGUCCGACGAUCAAGCAGGUGAACAAUUUUCUGACCUCAUCCUGGCGGGAUGAUGACUUUGUGCCACGCUACUGUGAGCACUUUAAUAUUCUGCAGAACUCAAGCUCUGAACUGUUUGGGCCUCGGGCAGCCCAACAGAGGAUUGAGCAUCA,0.202
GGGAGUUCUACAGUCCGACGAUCUUCUUCCCUAAGAGAACCACCUCCCUGAUUCUUCCCGGCAUCAUAAAGGCAGCUGCUCACGUAUUAUAUGAAACGGAAGUGGAAGUGUCGUUAAUGCCUCCCUGCUUCCAUAAUGAUUGCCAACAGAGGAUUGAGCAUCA,0.392
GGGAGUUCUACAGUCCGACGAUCUAUGUGGAGACAGAAUUGAUAUUUGCACUGGCUAAAACAAACCGCCUUGCAGAAUUAGAAGAGUUCAUCAAUGGGCCAAAUAAUGCUCAUAUUCAGCAAGUUGGUGACCGUUGUUAUGAUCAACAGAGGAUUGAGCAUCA,0.656

# Repeated from above (sample 2):
Sequence,fitted relative affinity
TTAGGTCTCGGTCTCGGTCAGTGCTAG,5.02 z-score
ATAACACTCTTCTTTTGCTAAGTGCTA,0.968 z-score
TTAGGTATTGGTATCGGTTAGTGCTAG,7.49 z-score
GACGATATCAGACTGGAGAAGTGCTAG,-0.454 z-score
TCACGTGTTTTTCTCCTACTGTGCTAG,1.33 z-score
